Assay results of several laboratories.
Lines come from different studies, so protocols differ. Numbers after ± are the reported error.
Cell line: K562

For `COc1cccc(-c2cc(-c3ccc(O)cc3)nc(N)n2)c1`, the IC50 was 48.4 µM (cell growth or viability, MTT; 48 h).
With `COc1ccc2c(NC(=O)CBr)c(C(=O)c3cc(OC)c(OC)c(OC)c3)oc2c1` the sub-G1 cells was 15 ± 2% (flow cytometry; IC50).
With `COc1ccc(-c2cc(-c3ccccc3)nc(N)n2)cc1` the IC50 was 61.9 µM (cell growth or viability, MTT; 48 h).
For `O=c1cc(-c2ccccc2)oc2cc(O)cc(O)c12`, the IC50 was 340 µM (cell growth or viability, ATP luminescence; 24 h).
For `COc1ccc(-c2cc(-c3cccc(OC)c3)nc(N)n2)cc1`, the IC50 was 8.77 to 57.7 µM (cell growth or viability, MTT; 48 h).
For `Cc1cn(-c2cc(NC(=O)c3ccc(C)c(Nc4nccc(-c5cccnc5)n4)c3)cc(C(F)(F)F)c2)cn1`, “threshold concentration for apoptosis” read 25 nM (annexin V staining; 72 h, continuous exposure).
With `COc1ccc2c(N)c(C(=O)c3cc(OC)c(OC)c(OC)c3)oc2c1` the IC50 was 0.008 µM (cell growth or viability).
For `CC(C)C[C@H](NC(=O)[C@@H](O)[C@H](N)Cc1ccccc1)C(=O)O`, the IC50 was 2.2 µM (aminopeptidase activity; with: Ala-AMC 50).
The sub-G1 cells of `COc1ccc2c(NC(=O)CI)c(C(=O)c3cc(OC)c(OC)c(OC)c3)oc2c1` is reported as 33 ± 4% (flow cytometry; IC50).
With `CC(=O)O[C@H]1C(=O)[C@@]2(C)[C@H]([C@H](OC(=O)c3ccccc3)[C@]3(O)C[C@H](OC(=O)[C@H](O)[C@@H](NC(=O)c4ccccc4)c4ccccc4)C(C)=C1C3(C)C)[C@]1(OC(C)=O)CO[C@@H]1C[C@@H]2O` the EC50 was ~1 µM (phosphorylation increase, phosphoproteomics, item: MAP7, MAP7D3, ARHGEF2; 30 min).
`O=C1c2cccc(O)c2C(=O)c2c(O)cc(CO)cc21` gave an IC50 of 309 µM (cell growth or viability, ATP luminescence; 24 h).
The IC50 of `COc1cccc(-c2cc(-c3ccc(Br)cc3)nc(N)n2)c1` is reported as 57.7 µM (cell growth or viability, MTT; 48 h).
`O=C(O)c1cc(O)c2c(c1)C(=O)c1cccc(O)c1C2=O` has an IC50 of 380 µM (cell growth or viability, ATP luminescence; 24 h).
The IC50 of `CCCCC[C@H](CC(=O)NO)C(=O)N[C@H](C(=O)N1CCC[C@H]1CO)C(C)C` is reported as 1.46 µM (aminopeptidase activity; with: Ala-AMC 50).
